Experimental data pooled from the literature.
Each line is one published result; not all experiments were run side by side. “And” joins repeats or separate records; there may be more than shown. ± gives the spread as reported.
UniProt Q9Y478, sequence (whole entry, looked up): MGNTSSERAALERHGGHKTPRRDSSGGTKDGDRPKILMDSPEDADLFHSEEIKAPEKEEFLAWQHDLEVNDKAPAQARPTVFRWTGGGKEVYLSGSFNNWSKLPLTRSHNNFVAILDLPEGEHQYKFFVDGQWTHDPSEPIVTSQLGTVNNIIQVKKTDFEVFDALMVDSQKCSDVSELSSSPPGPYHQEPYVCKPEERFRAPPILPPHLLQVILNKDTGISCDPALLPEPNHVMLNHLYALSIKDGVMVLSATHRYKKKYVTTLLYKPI
UniProt P54619, sequence (whole entry, looked up): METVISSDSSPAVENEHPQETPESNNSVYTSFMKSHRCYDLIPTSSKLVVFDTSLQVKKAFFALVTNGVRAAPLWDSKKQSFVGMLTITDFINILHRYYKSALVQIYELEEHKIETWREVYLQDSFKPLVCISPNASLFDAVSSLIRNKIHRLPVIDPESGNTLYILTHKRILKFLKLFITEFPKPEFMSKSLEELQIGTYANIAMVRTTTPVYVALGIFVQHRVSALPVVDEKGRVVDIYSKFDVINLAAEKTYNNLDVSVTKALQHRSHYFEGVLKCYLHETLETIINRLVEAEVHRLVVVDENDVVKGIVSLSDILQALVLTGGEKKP
UniProt Q13131, sequence (whole entry, looked up): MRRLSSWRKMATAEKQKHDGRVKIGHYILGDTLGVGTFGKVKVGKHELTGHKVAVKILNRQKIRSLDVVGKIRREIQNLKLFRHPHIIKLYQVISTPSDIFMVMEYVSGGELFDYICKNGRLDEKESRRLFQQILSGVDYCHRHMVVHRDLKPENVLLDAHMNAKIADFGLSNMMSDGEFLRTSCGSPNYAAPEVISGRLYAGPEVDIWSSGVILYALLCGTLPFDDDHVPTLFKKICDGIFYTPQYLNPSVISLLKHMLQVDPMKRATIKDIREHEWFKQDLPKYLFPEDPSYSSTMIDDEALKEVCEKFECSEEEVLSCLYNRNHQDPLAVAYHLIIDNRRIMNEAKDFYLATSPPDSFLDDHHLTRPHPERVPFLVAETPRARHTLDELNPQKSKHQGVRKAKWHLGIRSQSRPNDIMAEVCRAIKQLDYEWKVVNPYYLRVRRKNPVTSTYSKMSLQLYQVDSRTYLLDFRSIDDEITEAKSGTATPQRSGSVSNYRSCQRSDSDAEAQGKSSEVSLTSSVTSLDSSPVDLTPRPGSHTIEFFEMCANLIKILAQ

For COC1OC(C)C(O)C(OC2OC(C)C(O)C(OC3OC(C)C(O)C(OC4OC(C)C(O)C(OC5OC(C)C(O)C(OC6OC(C)C(O)C(OC7OC(C)C(O)C(OC8OC(C)C(O)C(OC9OC(C)C(O)C(OS(=O)(=O)O)C9OS(=O)(=O)O)C8OS(=O)(=O)O)C7OS(=O)(=O)O)C6OS(=O)(=O)O)C5OS(=O)(=O)O)C4OS(=O)(=O)O)C3OS(=O)(=O)O)C2OS(=O)(=O)O)C1OS(=O)(=O)O (stereo not drawn), “thrombin time prolongation” read 0.9 fold (human plasma; 128 µg/mL; relative to: control).
COC1CN([C@H]2CC[C@H]([C@@]3(C)Oc4c(Cl)cc(C(=O)NCc5c(SC)cc(C)[nH]c5=O)c(C)c4O3)CC2)C1: “log2 fold change” 0.451 (RNA-seq, measured: PHLDA1 mouse homolog; mouse, HT-1376 xenograft, whole blood; dose not given; relative to: vehicle).
For CCCC[C@H](NC(=O)COCCOCCNC(=O)CN1CCN(CC(=O)O)CCN(CC(=O)O)CC1)C(=O)N[C@H]1CC(=O)NCCCC[C@@H](C(N)=O)NC(=O)[C@H](Cc2c[nH]c3ccccc23)NC(=O)[C@H](CCCNC(=N)N)NC(=O)[C@@H](Cc2ccccc2)NC(=O)[C@H](Cc2c[nH]cn2)NC1=O [technetium-99m labelled], the tissue uptake was 0.12 ± 0.07 %ID/g (C57 mouse, lung; intravenous, 0.037 MBq, 4 h).
C=C(NC(=O)c1csc(-c2nc3c(cc2O)-c2nc(cs2)C(=O)NC(C(C)O)C(=O)NC(=C(C)OC)c2nc(cs2)C(=O)NC2c4nc(cs4)C(=O)NC(COC(=O)c4c5c6c(cccc6n4O)COC(=O)C(OC4CC(C)(O)C(N(C)C)C(C)O4)C2OC5)c2nc-3cs2)n1)C(N)=O (stereo not drawn) gave a half-life of 6.8 h (male cynomolgus monkey, plasma; intravenous, 1 mg/kg, single dose, infusion).
Cc1nn(-c2cccc(N)c2)c(=O)c2cnc(Nc3ccc(N4CCNCC4)cc3)nc12 gave an IC50 of 1.52 µM (AMP-activated protein kinase (AMPK) alpha-1/beta-1/gamma-1 (PRKAG1/PRKAA1/PRKAB1, Homo sapiens, UniProt P54619+Q13131+Q9Y478); enzyme activity, inhibitor).
CC(C)C[C@H](NC(=O)[C@@H](CCCCNC(=O)[C@@H](Cc1ccccc1)NC(=O)CCCCCNC(=O)CN1CCN(CC(=O)O)CCN(CC(=O)O)CCN(CC(=O)O)CC1)NC(=O)[C@H](Cc1ccc(O)cc1)NC(=O)[C@H](CO)NC(=O)[C@H](Cc1c[nH]c2ccccc12)NC(=O)[C@H](Cc1c[nH]cn1)NC(=O)[C@@H]1CCC(=O)N1)C(=O)N[C@@H](CCCNC(=N)N)C(=O)N1CCC[C@H]1C(=O)NCC(N)=O [indium-111 labelled] has a tissue uptake of 1.56 ± 0.63 %ID (athymic nude mouse, female, intestines; intravenous, 0.037 MBq, 1 h).
CN1CCC[C@]1(C)/C=C/S(=O)(=O)NC(=O)Nc1c2c(cc3c1CCC3)CCC2 gave an IL-1β inhibition of 82.1% (human, whole blood ex vivo; 25 mg single dose, 12 h, single ascending dose, together with: LPS and ATP).
Under “paw edema volume”, Cc1ccc(N(O)/N=N/c2ccc(S(=O)(=O)Nc3nccs3)cc2)cc1 is recorded as 6 ± 1.24 a.u. (carrageenan-induced paw edema; Wistar rat; oral, 100 mg/kg, 2 h after carrageenan, together with: carrageenan 1% subplantar; higher = more edema).
COC1OC(C)C(OS(=O)(=O)O)C(OC2OC(C)C(OS(=O)(=O)O)C(OC3OC(C)C(OS(=O)(=O)O)C(OC4OC(C)C(OS(=O)(=O)O)C(OC5OC(C)C(OS(=O)(=O)O)C(OC6OC(C)C(OS(=O)(=O)O)C(OC7OC(C)C(OS(=O)(=O)O)C(OC8OC(C)C(OS(=O)(=O)O)C(OC9OC(C)C(OS(=O)(=O)O)C(OC%10OC(C)C(OS(=O)(=O)O)C(OC%11OC(C)C(OS(=O)(=O)O)C(OC%12OC(C)C(OS(=O)(=O)O)C(OS(=O)(=O)O)C%12O)C%11O)C%10O)C9O)C8O)C7O)C6O)C5O)C4O)C3O)C2O)C1O (stereo not drawn) has a thrombin time of 9.7 ± 0.4 s (human plasma; 128 µg/mL).
Cc1cn(-c2cc(NC(=O)c3cc(C#Cc4cnc5c(Nc6cnn(C)c6)cccn45)c(C)cc3F)cc(C(C)(C)C#N)c2)cn1 gave an aggregation of 74.5% (platelet aggregation; platelet-rich plasma; 1 µM, DMSO 100, together with: collagen 2 mg/mL).
Under “log2 fold change”, Cc1ncsc1-c1ccc(C(C)NC(=O)C2CC(O)CN2C(=O)C(NC(=O)CCCCCCCCCCN2CCCC(Nc3ncc(Cl)c(Nc4ccccc4S(=O)(=O)C(C)C)n3)C2)C(C)(C)C)cc1 (stereo not drawn) is recorded as -1.21 (22Rv1; RNA-seq, measured: ZNF232 mRNA; concentration not given; relative to: DMSO).
COc1ccc(C(=O)CCc2cc(C(CCc3ccc(O)cc3OC)c3ccc(O)cc3)c(O)cc2OC)cc1 (racemic) gave a 5-HETE level of 4820 ± 2400 pg/mL (human blood; 10 µM, together with: A23187).
C=C1CC[C@H](OCCCNC(=O)CCOCCOCCOCCOCCOCCOCCOCCOCCOCCOCCOCCOCCOCCOCCOCCOCCOCCOCCOCCOCCOCCOCCOCCOCCOCCOCCOCCOCCOCCOCCOCCOCCOCCOCCOCCOCCNC(=O)CCN2C(=O)CC(SC[C@H](NC(=O)[C@H](Cc3ccccc3)NC(=O)[C@H](CC(N)=O)NC(=O)[C@H](Cc3c[nH]cn3)NC(=O)[C@@H](NC(=O)[C@H](CC(=O)O)NC(=O)[C@H](CCC(N)=O)NC(=O)[C@H](CC(C)C)NC(=O)[C@H](CCCCN)NC(=O)[C@H](CCCCN)NC(=O)[C@H](CCCNC(=N)N)NC(=O)[C@H](CC(C)C)NC(=O)[C@H](Cc3c[nH]c4ccccc34)NC(=O)[C@H](CCC(=O)O)NC(=O)[C@@H](NC(=O)[C@H](CCCNC(=N)N)NC(=O)[C@H](CCC(=O)O)NC(=O)[C@H](CCSC)NC(=O)[C@H](CO)NC(=O)[C@H](CC(N)=O)NC(=O)[C@H](CC(C)C)NC(=O)[C@H](Cc3c[nH]cn3)NC(=O)[C@H](CCCCN)NC(=O)CNC(=O)[C@H](CC(C)C)NC(=O)[C@H](CC(N)=O)NC(=O)[C@H](Cc3c[nH]cn3)NC(=O)[C@H](CCSC)NC(=O)[C@H](CC(C)C)NC(=O)[C@H](CCC(N)=O)NC(=O)[C@@H](NC(=O)[C@H](CCC(=O)O)NC(=O)[C@H](CO)NC(=O)[C@@H](NC(=O)[C@@H](N)CO)C(C)C)[C@@H](C)CC)C(C)C)C(C)C)C(=O)O)C2=O)C/C1=C/C=C1\CCC[C@]2(C)[C@@H]([C@H](C)CCCC(C)(C)O)CC[C@@H]12 (stereo partly drawn) gave a half-life of 24.3 h (male cynomolgus monkey, plasma; subcutaneous, 0.02 mg/kg, single dose).
For COC1OC(C)C(OS(=O)(=O)O)C(OC2OC(C)C(OS(=O)(=O)O)C(OC3OC(C)C(OS(=O)(=O)O)C(OC4OC(C)C(OS(=O)(=O)O)C(OS(=O)(=O)O)C4O)C3O)C2O)C1O (stereo not drawn), “thrombin time prolongation” read 0.9 fold (human plasma; 128 µg/mL; relative to: control).
For O=C(N[C@@H](Cc1coc2ccccc12)B(O)O)[C@@H]1C[C@H]2CC[C@@H]1O2, the T/C was -82% (tumour growth; MM1.S, mouse, MM1.S multiple myeloma xenograft; oral, 10 mg/kg daily).
Under “thrombin time prolongation”, COC1OC(C)C(OC2OC(C)C(OS(=O)(=O)O)C(OC3OC(C)C(OS(=O)(=O)O)C(OS(=O)(=O)O)C3OS(=O)(=O)O)C2OS(=O)(=O)O)C(OS(=O)(=O)O)C1OS(=O)(=O)O (stereo not drawn) is recorded as 1 fold (human plasma; 128 µg/mL; relative to: control).
For COc1cc2c(NC3CCN(C(C)C)CC3)cc(N3CCOCC3)nc2cc1OCCCN1CCCC1, “normalised protein abundance” read -0.203 and 0.0907 and -0.0367 and 0.126 and 0.155 and 0.397 and 0.0753 and 0.0953 (TMT quantitative proteomics, measured: MFGE8; 5xFAD mice, hippocampus; dose not given).
Nc1ncc(-c2cc(-c3cnn(CC(F)(F)F)c3)ncc2F)nc1C(=O)NC1CNCC(F)C1 (stereo not drawn) has a remaining binding of 89% (PRKD3; KINOMEscan; 1 µM; relative to: DMSO control).
CC(CCC(=O)NCc1ccc(C(=O)NO)cc1)C1CCC2C3C(O)CC4CC(O)CCC4(C)C3CCC12C (stereo not drawn) gave a relative abundance of 3.1% (measured: GUDCA; PCK rat (Pkhd1 mutant), liver; oral gavage, dose not given, 5 months; relative to: total bile acids).
COc1cc(O)ccc1CCC(c1ccc(O)cc1)c1cc2c(c(C)c1O)OC(c1ccc(O)cc1)CC2 (mixture of isomers) gave an amount of 164 ± 61 pg/mL blood (measured: 15-HEPE; human whole blood; 3 µM, together with: Escherichia coli).
C=CC(=O)Nc1cccc(Cn2ncc3cnc(Nc4cnn(CCOC)c4)nc32)c1: “percent of control” 26% (SRC human; binding, KINOMEscan; 100 nM; lower = stronger binding).
O=CCNCCOn1c(=O)n(OCCNCCO)c(=O)n(OCCNCCOn2c(=O)n(OCCNCCO)c(=O)n(OCCNCCO)c2=O)c1=O gave an inhibition of 14.9% (DPPH scavenging; 125 µg/mL).
Under “thrombin time prolongation”, COC1OC(C)C(OS(=O)(=O)O)C(OC2OC(C)C(OS(=O)(=O)O)C(OC3OC(C)C(OS(=O)(=O)O)C(OC4OC(C)C(OS(=O)(=O)O)C(OC5OC(C)C(OS(=O)(=O)O)C(OC6OC(C)C(OS(=O)(=O)O)C(OC7OC(C)C(OS(=O)(=O)O)C(OC8OC(C)C(OS(=O)(=O)O)C(OC9OC(C)C(OS(=O)(=O)O)C(OC%10OC(C)C(OS(=O)(=O)O)C(OS(=O)(=O)O)C%10O)C9O)C8O)C7O)C6O)C5O)C4O)C3O)C2O)C1O (stereo not drawn) is recorded as 0.9 fold (human plasma; 128 µg/mL; relative to: control).
Cc1[nH]nc2c1N=C(c1ccccc1Cl)c1cnc(N3CCOCC3)cc1N2 — result for “tumour growth inhibition”: 97% (mouse sample BA TNBC PDX; oral, 15 mg/kg, 120 h, 5 days per week).

A few entries again:
Cc1[nH]nc2c1N=C(c1ccccc1Cl)c1cnc(N3CCOCC3)cc1N2 — result for “tumour growth inhibition”: 97% (mouse sample BA TNBC PDX; oral, 15 mg/kg, 120 h, 5 days per week).
C=C(NC(=O)c1csc(-c2nc3c(cc2O)-c2nc(cs2)C(=O)NC(C(C)O)C(=O)NC(=C(C)OC)c2nc(cs2)C(=O)NC2c4nc(cs4)C(=O)NC(COC(=O)c4c5c6c(cccc6n4O)COC(=O)C(OC4CC(C)(O)C(N(C)C)C(C)O4)C2OC5)c2nc-3cs2)n1)C(N)=O (stereo not drawn) gave a half-life of 6.8 h (male cynomolgus monkey, plasma; intravenous, 1 mg/kg, single dose, infusion).
C=CC(=O)Nc1cccc(Cn2ncc3cnc(Nc4cnn(CCOC)c4)nc32)c1: “percent of control” 26% (SRC human; binding, KINOMEscan; 100 nM; lower = stronger binding).
